# Results of several laboratories.
# Each numbered part is a random draw from the data of one study; scales do not carry over between parts.

# Series 1
# Target: RNA binding protein fox-1 homolog 2, RRM domain, GST-SBP tag (RBFOX2, Homo sapiens, UniProt O43251-10, residues 100-194)
# Method: RNA Bind-n-Seq
# Form: RNA
# Sample: in vitro
# Concentration: 365 nM
# Notes: natural RNA segment, single round, ends assumed
# Relative to: no-protein control
# Reading: higher = stronger binding
# Residues (chain): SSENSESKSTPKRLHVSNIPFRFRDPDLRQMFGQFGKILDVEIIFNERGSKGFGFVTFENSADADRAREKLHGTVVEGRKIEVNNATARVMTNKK
Oligonucleotide,RBNS enrichment (R)
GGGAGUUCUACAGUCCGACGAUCCAUAGAUUUAGUCAGAAGCUGUUUUACUCUCUUAUCUUACAUUCUAUCUAGCUUCCAUAAUUUAUACCAGAACAAAAUGUUUUAGCCAGUUUGUUUCUACAUACCUAUGAUGGAAUUCUCGGGUGCCAA,0.35
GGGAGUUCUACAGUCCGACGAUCGAAAUUAACUGUAUAUCAUUCCAGUACAUUCCGUUGUACAUUUUAGUCUCCGUUUACUUUCUCUUCAUUGUUGAUAAGAGAAUGCCAAGCUGCGCGUUGUUCAGGCAGUUUGGAAUUCUCGGGUGCCAA,1.22
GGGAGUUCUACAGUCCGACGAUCACCAGUGGAAGCACAGCUCCAAGUUCAGACAGGUGCCCUUAGAGAGGAAAACCAUGACAGGCAAAUGCAUUUCCUCUGGAGUUUGAGACCCUGACAAACAACAGGUGGCAUGGAAUUCUCGGGUGCCAA,0.701
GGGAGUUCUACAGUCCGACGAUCAUGUCACUGCUGCACUCGCUAAGCAGGGCUUGUGAUAUUUCUCAUUUAGCAUUGAAAUAAUAAUAUUUAGGCAUGAGCUCUUGGCAGGAGUGGGCUCUGAGCAGUUGUUAUGGAAUUCUCGGGUGCCAA,1.37
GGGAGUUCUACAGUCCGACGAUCGGCUUCCUCUCUCUGGUCCUGCCACACAGAAGGAAAGCCCUGUCCAGGAUAAUGAGCGUUGCUGACACCCUUGCUAGCUUGUCCUGCCUACCUGCUUACCCCACUCCCUCUGGAAUUCUCGGGUGCCAA,0.33
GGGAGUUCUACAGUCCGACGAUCCUGCUCCCUCGGGCCUGUAGGGGGAGGUGGCCUUCUGACCCCUUUACACGUCCCCUGGGUGGACCUCCCUGCUGCAGGCACCAUACCUGCGAUGGUGUACAGGGCUGUGAUGGAAUUCUCGGGUGCCAA,0.415
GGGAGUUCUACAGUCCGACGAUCUUUGUUGGCAACAAAACAGGAUAUUUCUCUCCUGAAUGUUGGUUUUGCAGACCCUACACAGCGGCCCUGGAUAGUGAAUUUUACCCAGGUUUUUAGGGGUCAAGGAGGCCUGGAAUUCUCGGGUGCCAA,0.376
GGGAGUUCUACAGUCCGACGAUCUUCAUGUGGAACCCUCACCUGGGCUACAUCCUCACCUGCCCAUCCAACCUGGGCACCGGGCUGCGGGCAGGUGUGCAUAUCAAGCUGCCCAACCUGGGCAAGCAUGAGAAUGGAAUUCUCGGGUGCCAA,0.302
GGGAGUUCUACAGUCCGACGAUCUAUGCAAGAGUAUUGAUGUAUGUGCUGAAUCUUCACAGACUUGUCAAUACACAGGCAGUAUUCUAAAAUAGCACUGAACAGGGAGUCAGGAGACUAUUGUCUCCUAAACCUGGAAUUCUCGGGUGCCAA,0.273

# Series 2
# Target: Histone acetyltransferase KAT6A, winged helix 1, GST fusion (KAT6A, Homo sapiens, UniProt Q92794, residues 1-85)
# Method: protein binding microarray
# Form: double-stranded DNA, one strand shown
# Sample: in vitro
# Concentration: not given
# Notes: 8-mer, flanks averaged, mean of 2 arrays, mostly near background
# Relative to: not given
# Reading: higher = stronger binding
# Residues (chain): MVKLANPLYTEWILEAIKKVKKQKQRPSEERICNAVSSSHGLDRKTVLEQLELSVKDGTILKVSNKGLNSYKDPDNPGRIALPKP
Oligonucleotide,E-score
AGCCGATG,0.0807
ACTCCAAT,-0.0861
CATTAACC,0.0564
CGGAATCC,0.138
AATTTGAA,-0.0156
CTCACAGA,-0.0568
CAGATTGG,-0.297

# Series 3
# Target: Sal-like protein 4, full length isoform B (SALL4, Homo sapiens, UniProt Q9UJQ4-2, residues 1-616)
# Method: universal PBM
# Form: double-stranded DNA, one strand shown
# Sample: in vitro
# Concentration: not given
# Notes: 8-mer, flanks averaged, mean of replicates
# Reading: higher = stronger binding
Oligonucleotide,E-score
GACCGCGA,-0.257
AACCCCGT,-0.144
GGGGGACA,-0.302
GCGATGTA,0.0442
ACCGAAGA,0.0591
ACTCATCG,0.0318
CTACAACA,0.126
ACCTAATA,0.284
GCCAATCA,-0.0989
GACCCGGA,-0.45

# Other studies, line by line
Substance,target,test,system,setting,scale,endpoint,result
"PhoQ, residues 284 288 289 292 302 303 SQSLSM","PhoP, residues 12 14 15 18 19 NQGLL (Escherichia coli, UniProt P23836)","Sort-seq, item: YFP reporter",E. coli,"PhoQ-PhoP variant library, together with: 10 µM Mg2+","relative to: high Mg2+ state, higher = stronger signaling",fold induction,1.32

# For quick reference, copied from above (series 1):
Oligonucleotide,RBNS enrichment (R)
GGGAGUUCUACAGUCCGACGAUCCAUAGAUUUAGUCAGAAGCUGUUUUACUCUCUUAUCUUACAUUCUAUCUAGCUUCCAUAAUUUAUACCAGAACAAAAUGUUUUAGCCAGUUUGUUUCUACAUACCUAUGAUGGAAUUCUCGGGUGCCAA,0.35
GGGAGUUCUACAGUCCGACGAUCUUCAUGUGGAACCCUCACCUGGGCUACAUCCUCACCUGCCCAUCCAACCUGGGCACCGGGCUGCGGGCAGGUGUGCAUAUCAAGCUGCCCAACCUGGGCAAGCAUGAGAAUGGAAUUCUCGGGUGCCAA,0.302
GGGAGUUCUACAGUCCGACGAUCGGCUUCCUCUCUCUGGUCCUGCCACACAGAAGGAAAGCCCUGUCCAGGAUAAUGAGCGUUGCUGACACCCUUGCUAGCUUGUCCUGCCUACCUGCUUACCCCACUCCCUCUGGAAUUCUCGGGUGCCAA,0.33
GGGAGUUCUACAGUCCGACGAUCUAUGCAAGAGUAUUGAUGUAUGUGCUGAAUCUUCACAGACUUGUCAAUACACAGGCAGUAUUCUAAAAUAGCACUGAACAGGGAGUCAGGAGACUAUUGUCUCCUAAACCUGGAAUUCUCGGGUGCCAA,0.273
